# Results pooled from the literature.
# Each numbered part is a random draw from the data of one study; scales do not carry over between parts.

# Series 1
# Target: RING finger protein unkempt homolog, zinc fingers 1-6, GST-SBP tag (UNK, Homo sapiens, UniProt Q9C0B0, residues 30-357)
# Chain of UniProt Q9C0B0 (30-357, looked up): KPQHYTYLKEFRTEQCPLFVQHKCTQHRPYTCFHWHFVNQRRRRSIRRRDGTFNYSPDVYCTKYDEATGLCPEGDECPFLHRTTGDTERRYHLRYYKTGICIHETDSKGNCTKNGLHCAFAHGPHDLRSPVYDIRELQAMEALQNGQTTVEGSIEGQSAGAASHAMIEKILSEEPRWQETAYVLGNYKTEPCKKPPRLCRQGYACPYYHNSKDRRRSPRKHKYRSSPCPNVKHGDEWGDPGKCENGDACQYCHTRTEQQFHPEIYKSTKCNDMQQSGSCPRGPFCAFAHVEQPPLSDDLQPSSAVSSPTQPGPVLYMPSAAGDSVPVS
# Technique: RNA Bind-n-Seq
# Molecule type: RNA
# Sample: in vitro
# Tested at: not given
# Notes: RNA with constant flanks, human and mouse sites, ends assumed
# Relative to: input RNA pool
# Direction: higher = stronger binding
# All sequences stand within: GGGAGUUCUACAGUCCGACGAUC … CAACAGAGGAUUGAGCAUCA
Oligonucleotide,bound/input enrichment [ratio]
UUUGUUUUCAUGUUAAGCACGCGUGCUGGUGGUCUUGGCAUCAAUCUUGCGACUGCUGAUGUAGUAAUUUUGUAUGAUUCUGAUUGGAAUCCCCAAGUAGAUCUUCAGGCUAUGGACCGA,0.517
UAUGUGCCCAAUGUUCCAGAAGGAUCUGUGAGAAUCAUAGACCAGUCAAGCAAUGUGGAGAUAGCAUCUUUUCCAAUUUAUAAAGUGCUUUUCUGUGCACGUGGGCAUGAUGGGACAGCC,17.1
AGGAGGAGGUUUGCUUCCCGGAUCAUAGAUAGUCUGUUUAAUACAGUAACUGAUAAGAAGAUAGCUAUUUUGGGAUUUGCAUUCAAAAAGGACACUGGUGAUACAAGAGAAUCUUCUAGU,3.88
CAGGAGUGUGGGGAGUGCUUUGCUCAUAGCUCUGACCUCACUGAGCACCAGAAGAUUCAUGAUAGGGAGAAGCCCUCUGGAAGCAGAAACUAUGAAUGGUCUGUCAUUCGCAGCUUGGCC,0.178
AAAGAUGGAGAAAAGCAAGAUCUUUGAUAUCUUUCAUGUUUGCCUGCAGUUGAACAAUACUUUAGAGUACUUUUUAAAAUUAUUUCUCACAAAGAAAUGAAUGUACAAUCCAAUGAAAAC,4.73
GAAUGCAGUUUUCCUUGAGAUACCUGUUUUAAAAGGUUUUUCAGACAAUUUUGCAGAAAGGUGCAUUGAUUCUUAAAUUCUCUCUGUUGAGAGCAUUUCAGCCAGAGGACUUUGGAACUG,0.189
GAGUACAUCAAACUCAACCAGCAAAAAACAGCAGAAGAAGAAAAUCCAGAACAUGUAGAAAUUCAGAAGAUGAUGGAUUCCCUCUUCUUAAAAUUGGAUGCCCUCUCAAACUUCCACUUU,0.302
AAAUAAAUAUUUAAUUUUUUAAAUUGCUCUUGUAUAAUCAGAUGCCCCUUUUAGUAUUAUUUUAGAAGCGUUGGGAGGGUUUUGCCUAAAGUACAAUUUAUCGGGAAAAACUAGAUUUUA,74.1
GAAAUUUCCUUGUAUAUCCCCAAAAUGCUAACUGAAGAACGCCAUCUUCAUGAACUUGACAUAGUGCCUCCUUUACCUUUUUUUCCUAAGGCUCACACCGAAACCUCCAGGGCCAAGUGA,0.46
AGGAUUAAUCUUAAGGAUUGUAUAAUUCAUUAAAGCUGUGGUCUUUCCAUGUGGAGACUGAUAGAAAAUAAUUUUGUCCCAAGUCUUAUUUGCUGACUUUUUCUGUCAUGAGUGAGAUUG,0.293
UUAAGAAAAAUGCCUCACAUUAAACAUGUGGAUCUAAGGUUGAACGUAAUUAGGAAGCUGAUAGCAGAUGAAGUGGACUUUCUACAGCAUGUUACUCAGCUUGACCUACGAGACAAUAAG,0.153

# Series 2
# Target: RNA binding protein fox-1 homolog 2, RRM domain, GST-SBP tag (RBFOX2, Homo sapiens, UniProt O43251-10, residues 100-194)
# Technique: RNA Bind-n-Seq
# Molecule type: RNA
# Sample: in vitro
# Tested at: 365 nM
# Notes: natural RNA segment, single round, ends assumed
# Relative to: no-protein control
# Direction: higher = stronger binding
# All sequences stand within: GGGAGUUCUACAGUCCGACGAUC … UGGAAUUCUCGGGUGCCAA
# Construct (chain): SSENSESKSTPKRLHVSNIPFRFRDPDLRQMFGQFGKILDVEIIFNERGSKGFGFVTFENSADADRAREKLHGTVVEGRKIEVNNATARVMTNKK
Oligonucleotide,RBNS enrichment (R)
AGAAAAGCAGCCAUUGCGUGCCCUCUGUGAAGAGUUCUAACUUGGAGAACAAAUCUCUCAGACAAAUGACUUGUACUAAAUUUGGCUUUGGUUUCCAAGCCAAGGGAAAA,0.272
CAUGCCCCUGCUCACCUCUGCCAGGUCCCAGCUUGACCUACUGGGUCAAGGCCAGCCUCGGUGAUGGCCUGAUCCCAGGUACAAGGCCUUGUGAACUGAGUUUGAAACAU,0.545
AAAACUAUAUCUGCAGGGAUGAAUCUGUAACUUAAAUUGGGCCAAUCAGAAUUGUUAUCUUUGUUCAGGUAAAAUGAGUUGCAAGAUAUUGUGGGUACUUUUGUGUGCUC,0.583
GUGAAGAAACACCUCGUAGUUCACGCCACCAAAGCAGUUCUUGUCACACCUUUCCUGCCUGCGCAAACCUAGCUGUACCUAGCUGUACACGUCCUUUAUUAGAGAUGACC,0.392
GUGUAGGUCCUUCCUGAGCCCUUGCUUGUGUUUGGGCCAGCUUAGGACCUGGAGUCCUGGGGAGAGAAGGUGGGGAGGCUUGAGGCCUUUCUCUACUCCUCUCCCUCAGU,0.449
AUUAAUUGAAUCUAGUAUAUGCGGGAUGUACGACAUUUUGUGACUGAAGAGACUUGUUUCCUUCUACUUUUAUGUGUCUCAGAAUAUUUUUGAGGCGAAGGCGUCUGUCU,0.532
GCAGCACGCUGUGGUGACAGCCCGUCGGCACGGGAUUUGUACCGCUGUGCCCGUGUCAGCUCCUGGGGAGACCUUUUACCUGUGAUCGCUCCAUCCGAGUUUCCUCCUUC,0.331
UUAUAGUCACGAAGUUCUACUUCCAGGAAGACCAUAGUACUGCCGAGGCCUGUAAUAAUCACCAACUGCCUGAUCACUCUGGCCAUCAUUGGGGCCUGAGGAACAACUUU,0.229
UUCGUUUUUGCAUGAAUCGCGAUAUUUUGUACUUUUAAAAACUCCAACUUCCACAAAACAACUCAAGGCCUCCAAGUAUCAAGAUGUCCUGAAAUUUUUUUUUUUUUAGC,71.3
GUGGGGAUUGAGAAGGGGUGAAUAGAGGCUUGAGACUUUCCUUUGUGUGGUAGGACUUGGAGGAGAAAUCCCCUGGACUUUCACUAACCCUCUGACAUACUCCCCACACC,0.418
AUUUGCAGAGAAACAGGUGUACAGUUAUCGUUGUACUUUUGUACAAUGUGAAUUUUGUUAAUAAAUUAUAAGGUUUGUUUUUUUUUUUUUAAACUCUGCAGUGUUGAUUU,1.06
AAUUUGUAACUAAUUUUGUACGUAUGAAUGAAAUCUUUGACCUCUGUCGAGGUUUGCAAAGACUGACUUCAAACUACUGUACGUUUUUUUCAAGUGCUAAAAAAAAAAUU,0.488

# Series 3
# Target: PABPC1L2, full length, GST fusion (mouse, UniProt A0ABA7IW68)
# Technique: RNAcompete
# Molecule type: RNA
# Sample: in vitro
# Tested at: 20 nM
# Notes: 7-mer, probes averaged, single round
# Relative to: mean of 7-mers
# Direction: higher = stronger binding
# Target sequence (chain): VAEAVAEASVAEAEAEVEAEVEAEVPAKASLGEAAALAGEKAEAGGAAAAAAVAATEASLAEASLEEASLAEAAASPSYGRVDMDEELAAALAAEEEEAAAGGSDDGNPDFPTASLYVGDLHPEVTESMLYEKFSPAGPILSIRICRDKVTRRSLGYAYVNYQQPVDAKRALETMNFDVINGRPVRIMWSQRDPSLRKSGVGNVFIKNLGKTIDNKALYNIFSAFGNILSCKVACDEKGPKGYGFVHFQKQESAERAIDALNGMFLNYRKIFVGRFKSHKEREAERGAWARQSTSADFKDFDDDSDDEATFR
Oligonucleotide,7-mer Z-score
UACGACU,-0.0989
UAACCCC,-0.322
AAGUGCA,0.1
AGCCUCG,-0.409
UCGGCUA,-0.208
AAAGGAU,0.519
GUUGAGU,-0.313
CGAGAAG,0.0986
UAGUUCC,-0.255
UGUCAAA,0.149
CCUAUGA,-0.186
GCUGUAC,-0.122
AACGUGA,-0.108
UAUUGGA,-0.124
AUCACAU,-0.121
CUACGGG,0.287

# Mixed results
Molecule,target,test,test system,setting,scale,endpoint,result
LLRRLQDVANDRG,human cyclin A2,"peptide binding, competitive growth sequencing","peptide, Saccharomyces cerevisiae, cyclin A2-Cln2 fusion strain",mutational scanning library 2,direction not given,enrichment score,-0.552

# Repeated from above (series 1):
Oligonucleotide,bound/input enrichment [ratio]
CAGGAGUGUGGGGAGUGCUUUGCUCAUAGCUCUGACCUCACUGAGCACCAGAAGAUUCAUGAUAGGGAGAAGCCCUCUGGAAGCAGAAACUAUGAAUGGUCUGUCAUUCGCAGCUUGGCC,0.178
GAAUGCAGUUUUCCUUGAGAUACCUGUUUUAAAAGGUUUUUCAGACAAUUUUGCAGAAAGGUGCAUUGAUUCUUAAAUUCUCUCUGUUGAGAGCAUUUCAGCCAGAGGACUUUGGAACUG,0.189
AGGAGGAGGUUUGCUUCCCGGAUCAUAGAUAGUCUGUUUAAUACAGUAACUGAUAAGAAGAUAGCUAUUUUGGGAUUUGCAUUCAAAAAGGACACUGGUGAUACAAGAGAAUCUUCUAGU,3.88
GAAAUUUCCUUGUAUAUCCCCAAAAUGCUAACUGAAGAACGCCAUCUUCAUGAACUUGACAUAGUGCCUCCUUUACCUUUUUUUCCUAAGGCUCACACCGAAACCUCCAGGGCCAAGUGA,0.46
AGGAUUAAUCUUAAGGAUUGUAUAAUUCAUUAAAGCUGUGGUCUUUCCAUGUGGAGACUGAUAGAAAAUAAUUUUGUCCCAAGUCUUAUUUGCUGACUUUUUCUGUCAUGAGUGAGAUUG,0.293
AAAUAAAUAUUUAAUUUUUUAAAUUGCUCUUGUAUAAUCAGAUGCCCCUUUUAGUAUUAUUUUAGAAGCGUUGGGAGGGUUUUGCCUAAAGUACAAUUUAUCGGGAAAAACUAGAUUUUA,74.1
